Results from different studies.
Each line is one published result; not all experiments were run side by side. ± gives the spread as reported. ≈ marks a conversion by molar mass, not a printed value.

SMILES	organism	assay	system	conditions	scale	measurement	value
CC1CCCN(CCCNC(=O)c2cc(Sc3ccc(F)cc3)nc3ccccc23)C1 (centres unmarked)	SARS-CoV-2	cytopathic effect	USA_WA1/2020	first round 5-point	–	maximum response	97.6%
CC(C)=CCC/C(C)=C/Cc1c(O)ccc(C(=O)/C=C/c2ccc(O)cc2)c1O	Chikungunya virus	replicon Gluc reporter	BHK-21 CHIKV replicon Gluc reporter	concentration not given, dose-dependent	–	antiviral activity	active
NC(=O)c1cccnc1N1CCC(n2cc(Cc3ccccc3)nn2)CC1	Lassa mammarenavirus	viral replication	Huh-7	10 µM, 72 h	–	remaining activity	62%
O=C(N[C@H]1CN2CCC1CC2)c1cc2cccc(Cl)c2s1	SARS-CoV-2	viral replication, high-content imaging screen	BetaCov/Belgium/GHB-03021/2020	cell-based	–	EC50	> 100 µM
Oc1ccccc1-c1nc(-c2cccs2)c(-c2cccs2)[nH]1	SARS-CoV-2	cytopathic effect	USA_WA1/2020	retest, 8-point, duplicates	–	maximum response	11.5%
Nc1ncnc2c1ncn2[C@@H]1O[C@@H]2COP(=O)(O)O[C@H]3[C@@H](O)[C@H](n4cnc5c(=O)[nH]cnc54)O[C@@H]3COP(=O)(O)O[C@H]2[C@H]1O	Chikungunya virus	upregulated Reactome pathway, RNA sequencing, measured: Cell Cycle (R-HSA-1640170)	HFF-1	–	relative to: CHIKV-infected untreated	fold enrichment	1.73
O=C(Nc1ccc(N2CCN(C(=O)c3cnccn3)CC2)nc1)c1cccc(Br)c1	Mycobacterium tuberculosis	bacterial growth	H37Ra-lux	168 h	–	IC90	> 64 µM
COc1ccc(C[C@@H]2c3cc(Oc4cc(C[C@@H]5c6cc(O)c(OC)cc6CCN5C)ccc4O)c(OC)cc3CCN2C)cc1	SARS-CoV-2	viral replication	Vero E6	50 µM	relative to: mean of replicates	CPE inhibition	16.7%
CN(C)c1ccc(-c2nc(-c3cccs3)c(-c3cccs3)[nH]2)cc1	SARS-CoV-2	cytopathic effect, cell-based CPE	USA_WA1/2020	round 1, 5-point dilution	–	AC50	12.6 µM
CNC(=O)[C@@H](NC(=O)[C@H](CC(C)C)[C@H](O)C(=O)NO)C(C)(C)C	Daboia russelii	–	mouse	intravenous, 120 µg/mouse, 24 h, drug mixture, with: RJ venom 2.5 x LD50 preincubated	–	survival	0%
COc1cccc2c1C(=O)c1c(O)c3c(c(O)c1C2=O)C[C@@](O)(C(=O)CO)C[C@@H]3O[C@H]1C[C@H](N)[C@H](O)[C@H](C)O1	SARS-CoV-2	viral replication, GFP plate reader screen	–	cell-based	–	EC50	8.04 µM
O=C(N1CCC2(CC1)CC(CN1CCCCS1(=O)=O)CCO2)C1(c2ccccc2)CCCC1 (centres unmarked)	Venezuelan equine encephalitis virus	viral replication	–	–	–	EC50	0.501 µM
OC1(CN2CCN(C(c3ccc(F)cc3)c3ccc(F)cc3)CC2)CCCNC1 (centres unmarked)	Lassa mammarenavirus	viral replication	Huh-7	10 µM, 72 h	–	remaining activity	32%
NCCCCCc1cnc[nH]1	Ebola virus Zaire	HIV/EBOV pseudovirion entry	A549	48 h	–	IC50	> 100 µM
CC(C)(C)N1CCC(c2ccccc2)(c2ccccc2)CC1	SARS-CoV-2	cytopathic effect	USA_WA1/2020	round 1, 5-point	–	efficacy	50.4%
CC(C)(C)NC(=O)[C@@H]1C[C@@H]2CCCC[C@@H]2CN1C[C@@H](O)[C@H](Cc1ccccc1)NC(=O)[C@H](CC(N)=O)NC(=O)c1ccc2ccccc2n1	SARS-CoV-2	viral replication, high-content imaging screen	–	cell-based	–	EC50	> 100 µM
Cc1ccnc(NCCNc2nc(C(C)(C)C)nc3c2cnn3C)c1	Lassa mammarenavirus	viral replication	Huh-7	10 µM, 72 h	–	remaining activity	1%
O=C(NCCCN1CCCCC1)c1cc(Sc2ccc(Cl)cc2)nc2ccccc12	SARS-CoV-2	cytopathic effect	USA_WA1/2020	retest 8-point	–	maximum response	94.3%
CC(C)C1CN(C(=O)c2ccc3cccnc3c2O)CCCN1CC1CC1 (centres unmarked)	Lassa mammarenavirus	viral replication	Huh-7	10 µM, 72 h	–	remaining activity	1%
O=C(Nc1ccc(N2CCN(C(=O)c3cnccn3)CC2)nc1)c1ccc(Br)cc1Cl	Mycobacterium tuberculosis	bacterial growth	H37Ra-lux	168 h	–	IC90	4 µM
COc1ccc2cc1Oc1ccc(cc1)C[C@H]1c3c(cc4c(c3Oc3cc5c(cc3OC)CCN(C)[C@@H]5C2)OCO4)CCN1C	African swine fever virus	–	–	concentration not given	–	p72 mRNA and protein	inhibited
NC(=O)C1CN(CCCCC(c2ccc(F)cc2)c2ccc(F)cc2)CCN1CC(=O)Nc1c(Cl)cc(N)cc1Cl (centres unmarked)	SARS-CoV-2	viral replication, high-content imaging screen	–	cell-based	–	EC50	> 100 µM
CCCN(CCC)CCNC(=O)c1cc(Sc2ccc(Cl)cc2)nc2ccccc12	SARS-CoV-2	cytopathic effect	USA_WA1/2020	first round 5-point	–	AC50	10 µM
CN(C)CCOC(C)(c1ccccc1)c1ccccn1 (centres unmarked)	Marburg virus	HIV/MARV pseudovirion entry	A549	48 h	–	IC50	> 100 µM

SMILES	organism	assay	system	conditions	scale	measurement	value
COc1cc2c(O)c3c(c(-c4ccc5c(c4)OCO5)c2cc1OC)C(=O)N(/N=C/c1ccccc1)C3	VSV pseudotyped with Ebola virus GP	viral entry, measured: GFP	HeLa	–	–	IC50	6.63 ± 0.437 µM
CN(CCOc1ccccc1)c1ncnc2[nH]ccc12	Lassa mammarenavirus	viral replication	Huh-7	10 µM, 72 h	–	remaining activity	39%
COc1cc2c3cc1Oc1c(OC)c(OC)cc4c1[C@@H](Cc1ccc(O)c(c1)Oc1ccc(cc1)C[C@@H]3N(C)CC2)N(C)CC4	SARS-CoV-2	viral replication, high-content imaging screen	–	cell-based	–	EC50	> 6.31 µM
C=C[C@@](C)(/C=C/c1ccc(O)cc1)CCC=C(C)C	Severe acute respiratory syndrome coronavirus 2	cytopathic effect	Vero C1008	1.562 µM	–	inhibition	0%
CC(C)C(=O)Nc1ncc(Cc2ccc3ccccc3c2)s1	Histoplasma capsulatum	microbial growth	–	–	–	MIC	20 µM (≈ 6.21 µg/mL)
O=C1CC(Nc2ncnc3c2CCC3)CN1CCCc1ccccc1 (centres unmarked)	Lassa mammarenavirus	viral replication	Huh-7	10 µM, 72 h	–	remaining activity	43%
Cn1c(=O)ccc2ccc(F)c(CCNC[C@H]3CN(c4cnc5c(n4)NC(=O)CO5)C(=O)O3)c21	Legionella pneumophila	microbial growth	–	–	–	MIC50	< 0.015 µg/mL
CCc1c(C(=O)C(N)=O)c2c(OCC(=O)O)cccc2n1Cc1ccccc1	Daboia russelii	–	mouse	intravenous, 120 µg/mouse, 24 h, drug mixture, with: KA venom 2.5 x LD50 preincubated	–	survival	0%
CN(C)S(=O)(=O)NCC1CCOC2(CCN(C(=O)C3(c4ccccn4)CCCC3)CC2)C1 (centres unmarked)	Venezuelan equine encephalitis virus	viral replication	–	–	–	EC50	> 39.8 µM
COC(=O)[C@H]1[C@H]2C[C@@H]3c4[nH]c5cc(OC)ccc5c4CCN3C[C@H]2C[C@@H](OC(=O)/C=C/c2cc(OC)c(OC)c(OC)c2)[C@@H]1OC	SARS-CoV-2	viral replication, high-content imaging screen	–	cell-based	–	EC50	> 100 µM
O=C(Nc1ncc(Cc2cccc3ccccc23)s1)C1CCCCC1	Histoplasma capsulatum	microbial growth	–	–	–	MIC	0.6 to 1.3 µM (≈ 0.21 to 0.456 µg/mL)
CCCCN(CCCC)CCCNC(=O)c1cc(-c2ccc(Cl)s2)nc2ccccc12	SARS-CoV-2	cytopathic effect	USA_WA1/2020	round 2, 5-point	–	maximum response	72.5%
COc1cc2c(N3CCN(C(=O)Nc4ccc(OC(C)C)cc4)CC3)ncnc2cc1OCCCN1CCCCC1	SARS-CoV-2	viral replication, GFP plate reader screen	–	cell-based	–	EC50	> 100 µM
CCCCCCCCCCCCCCNC(=O)CP(=O)(O)O	Bacillus anthracis	–	Ames/FL	–	–	MIC90	0.78 µg/mL (≈ 2.33 µM)
O=C1c2c(O)c(=O)ccn2N([C@@H]2c3ccccc3SCc3c2ccc(F)c3F)[C@@H]2COCCN12	Influenza A virus	viral replication	MDCK, A(H9N2)	–	–	EC50	0.00018 ± 5e-05 µM
CC(C)C[C@@H]1NC(=O)CN(C(=O)c2cccn(C)c2=O)CCN(C)C(=O)[C@H](C)NC(=O)CN(C)C(=O)[C@@H](Cc2c[nH]c3ccccc23)NC(=O)c2csc1n2	Lassa mammarenavirus	viral replication	Huh-7	concentration not given	–	Emax	15%
COc1ccc(Nc2cc(C(=O)NCCCN(C)Cc3ccccc3)c3ccccc3n2)cc1	SARS-CoV-2	cytopathic effect, cell-based CPE	USA_WA1/2020	round 2, 5-point dilution	–	efficacy	73.9%
O=c1nc(NO)ccn1[C@@H]1O[C@H](CO)[C@@H](O)[C@H]1O	SARS-CoV-2 Washington strain	viral replication, qRT-PCR	Calu-3	–	–	EC90	1.8 ± 0.7 µM
CCOc1ccc(CN(C)CC2CCCN(CCc3ccccc3OC)C2)cc1 (centres unmarked)	Lassa mammarenavirus	viral replication	Huh-7	10 µM, 72 h	–	remaining activity	49%
COc1cc2c3cc1Oc1cc(ccc1O)CC1c4c(cc(OC)c(O)c4Oc4ccc(cc4)CC3N(C)CC2)CCN1C (centres unmarked)	SARS-CoV-2	viral replication, GFP plate reader screen	–	cell-based	–	EC50	> 10 µM
CC(C)=CCc1c(O)ccc(C(=O)/C=C/c2ccc(O)cc2)c1O	Severe acute respiratory syndrome coronavirus 2	cytopathic effect	Vero C1008	1.562 µM	–	inhibition	0%
CNC(=NCCSCc1csc(N=C(N)N)n1)NC#N	Ebola virus Zaire	HIV/EBOV pseudovirion entry	A549	48 h	–	IC50	> 100 µM
Nc1ncnc2c([C@@H]3N[C@H](CO)[C@@H](O)[C@H]3O)c[nH]c12	Sudan ebolavirus	viral replication	HeLa, Boniface	1.6 µM	–	inhibition	6.4%

Some of these lines once more:
SMILES	organism	assay	system	conditions	scale	measurement	value
O=C(N1CCC2(CC1)CC(CN1CCCCS1(=O)=O)CCO2)C1(c2ccccc2)CCCC1 (centres unmarked)	Venezuelan equine encephalitis virus	viral replication	–	–	–	EC50	0.501 µM
O=C1c2c(O)c(=O)ccn2N([C@@H]2c3ccccc3SCc3c2ccc(F)c3F)[C@@H]2COCCN12	Influenza A virus	viral replication	MDCK, A(H9N2)	–	–	EC50	0.00018 ± 5e-05 µM
COc1ccc(C[C@@H]2c3cc(Oc4cc(C[C@@H]5c6cc(O)c(OC)cc6CCN5C)ccc4O)c(OC)cc3CCN2C)cc1	SARS-CoV-2	viral replication	Vero E6	50 µM	relative to: mean of replicates	CPE inhibition	16.7%
COc1cc2c(N3CCN(C(=O)Nc4ccc(OC(C)C)cc4)CC3)ncnc2cc1OCCCN1CCCCC1	SARS-CoV-2	viral replication, GFP plate reader screen	–	cell-based	–	EC50	> 100 µM
